Published values of several laboratories.
Numbered parts are unrelated; each lists some results of a single study. Positions count from the first letter of the parent shown.

Block 1
Target: Interferon regulatory factor 5, full length, phosphomimetic (IRF5, Homo sapiens, UniProt Q13568-2, residues 1-514, K96S/S451D/S453D/S456D/S462D)
Technique: protein-binding microarray
Molecule type: double-stranded DNA, one strand shown
Medium: in vitro
Tested at: 250 nM
Notes: 60-bp whole probe
With: salmon DNA 0.4 mg/ml
Baseline: random background probes
Reading: higher = stronger binding
Measurement: log fluorescence
Shared flanks, not repeated: GCCTAGCAC … GTCTTGATTCGCTTGACGCTGCTG
TCATATTTTAATCACATACTGTGCTAG: 1.07 z-score
CCAGAGTCCTGTTTGATAATGTGCTAG: -0.3 z-score
TTCTCTTTCACTACTCCATTGTGCTAG: 5.89 z-score
GGCGGTTCCGGTTTCGGGACGTGCTAG: 4.34 z-score
CTAGTTGTGATTCTTTCGATGTGCTAG: 5.69 z-score
TCATATTTAAGACCTATGACTGTGCTA: 0.466 z-score
GTAGGACTGGGGACTGGGTTAGTGCTA: -0.577 z-score
TTAAGTATCGACTATCGGTTAGTGCTA: 9.18 z-score
TTAGGACTGGACTATCGGTAAGTGCTA: 3.97 z-score
GACGATTTCAGACTGGATACGTGCTAG: 0.0697 z-score
TTATATATCAGACTGGATTAGTGCTAG: 0.442 z-score
TCATACATTTATATCTTACTGTGCTAG: 0.748 z-score
TCATCTTTCCATACTGCACTGTGCTAG: 1.31 z-score

Block 2
Target: CCNE1, cyclin fold, Cln2 fusion (human)
Technique: yeast growth competition, sequencing
Medium: yeast
Notes: strong parent motif
Baseline: not given
Reading: higher = stronger binding
Measurement: normalised enrichment score
Parent: GMNC docking peptide (human); KNAKRNLSSEFAN
KNAKRNLSSGFAN [E10G]: 0.381
KNAKRNLSSEFEN [A12E]: 2.43
KNVKRNLSSEFAN [A3V]: 2.28
KNAKRNLSGEFAN [S9G]: 0.94
KNAKRNLSSETAN [F11T]: 0.138
KNAKRNLSAEFAN [S9A]: 1.51
KNAKDNLSSEFAN [R5D]: 0.00944
KNAKRNLSSEFMN [A12M]: 1.26
KNAKRNLSSPFAN [E10P]: 0.0142
KNAMRNLSSEFAN [K4M]: 0.332
KNAKRNLLSEFAN [S8L]: 4.45
KNAPRNLSSEFAN [K4P]: 0.293
KGAKRNLSSEFAN [N2G]: 2.22
KNAKRGLSSEFAN [N6G]: 0.174
KLAKRNLSSEFAN [N2L]: 0.662
KNPKRNLSSEFAN [A3P]: -0.558
KNAKPNLSSEFAN [R5P]: -0.412
KEAKRNLSSEFAN [N2E]: 0.567
KVAKRNLSSEFAN [N2V]: 0.0807
KNAKRNLSSEFWN [A12W]: 0.955
KNAKRNLKSEFAN [S8K]: 0.607

Block 3
Target: ABI1, truncated, D143A, DHFR fusion (Arabidopsis thaliana)
Technique: DHFR PCA, deep sequencing
Medium: yeast
Notes: methotrexate growth selection, single substitutions
With: (+)-ABA 1.4 µM
Baseline: wild-type fitted maximum
Reading: higher = stronger binding
Measurement: relative binding score
Parent: PYL1, truncated, DHFR fusion (Arabidopsis thaliana); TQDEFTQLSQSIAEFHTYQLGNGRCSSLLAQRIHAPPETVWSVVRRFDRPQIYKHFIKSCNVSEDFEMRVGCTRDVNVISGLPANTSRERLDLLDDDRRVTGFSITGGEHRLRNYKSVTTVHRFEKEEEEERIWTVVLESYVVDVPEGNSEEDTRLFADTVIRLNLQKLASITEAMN
T120R: -3.16%
T135G: 4.78%
Y53L: -1.58%
Q2W: 54.9%
E129L: 47.8%
V118C: 39.9%
A84P: 5.15%
E139Y: 37.8%
D159G: 2.03%
P83N: 14.5%

Mixed results
PhoQ, residues 284 288 289 292 302 303 AANNSF
fold induction (PhoP, residues 12 14 15 18 19 GMGLL (Escherichia coli, UniProt P23836); Sort-seq, measured: YFP reporter; E. coli; PhoQ-PhoP variant library, with: 10 µM Mg2+; baseline: high Mg2+ state, higher = stronger signaling): 1.53
